Experimental data from different studies.
Each line is one published result; not all experiments were run side by side.

semaglutide
participants with adverse events (item: leading to treatment discontinuation; human, safety analysis set; concentration not given, 32 weeks, run-in): 4.2%

chicoric acid
Papp apical to basolateral (IPEC-J2 monolayer; added: monensin 50 µM; baseline: without inhibitor): no effect

maraviroc
C12 (black CYP3A5 intermediate metabolizers, plasma; 300 mg twice daily): 63.1 ng/mL

deucravacitinib
Cmax (human; oral, 4 mg twice daily, day 12, geometric mean): 49.6 ng/mL

A few entries again:
semaglutide
participants with adverse events (item: leading to treatment discontinuation; human, safety analysis set; concentration not given, 32 weeks, run-in): 4.2%
